Experimental data gathered from unrelated publications.
Lines come from different studies, so protocols differ. ± marks the error that the study gave.
Organism: Leishmania donovani

Structure (SMILES) | assay | test system | conditions | quantity | value
CC(=O)[O-].F[P-](F)(F)(F)(F)F.[Cu+2].c1ccc(CN2CCN3CCN(CC2)CCN(Cc2ccccc2)CC3)cc1 | parasite growth, resazurin | – | 72 h, promastigote | IC90 | > 20 µM
N=C(N)NCCC[C@H](NC(=O)[C@H](CCCNC(=N)N)NC(=O)[C@H](CCCNC(=N)N)NC(=O)[C@H](CCC(N)=O)NC(=O)[C@H](CCCNC(=N)N)NC(=O)[C@H](CCCNC(=N)N)NC(=O)[C@H](CCCCN)NC(=O)[C@H](CCCCN)NC(=O)[C@H](CCCNC(=N)N)NC(=O)CNC(=O)[C@H](Cc1ccc(O)cc1)NC(=O)CNC(=O)CNC(=O)[C@@H]1CCCCNC(=O)CCC(=O)N[C@@H](CCCNC(=N)N)C(=O)N[C@@H](CC(N)=O)C(=O)NCC(=O)N[C@@H](CCC(N)=O)C(=O)N[C@@H](CS)C(=O)N[C@@H](CCC(N)=O)C(=O)N[C@@H](CCCNC(=N)N)C(=O)N[C@@H](CCCCN)C(=O)N1)C(N)=O | parasite growth, resazurin | – | 48 h, promastigote | IC50 | ~6 µM
O=C(NCCNCCO)c1cn(Cc2ccccc2)c2cc(OCc3ccc(C(F)(F)F)cc3)c(Cl)cc2c1=O | – | Bob promastigotes | 120 h | IC50 | < 3 µM
[Cl-].[Cl-].[Mn+2].c1ccc(CN2CCCNCCN(Cc3ccccc3)CCCNCC2)cc1 | parasite growth, resazurin | – | 72 h, promastigote | IC50 | 6.62 µM
O=S(=O)(CCC(F)(F)F)N[C@H]1CC[C@H](Nc2ncc3c(-c4ccccn4)n[nH]c3n2)CC1 | parasite growth | – | promastigote | EC50 | 0.0794 µM
COc1cc2c(=O)c(C(=O)NCCNCCO)cn(Cc3ccccc3)c2cc1OCc1cccc(Cl)c1 | – | Bob promastigotes | 120 h | IC50 | > 20 µM
CC1N=C(CCCCCCCCCCC2=CC(CCCCCCCCCCC3=NC(C)C(O)CC3)C3CCCN3C2)CCC1O (stereo not drawn) | Alamar Blue | axenic amastigotes | 72 h, 37 °C | IC90 | 5.89 ± 0.76 µg/mL
[Cl-].[Cl-].[Mn+2].c1ccc(CN2CCNCCN(Cc3ccccc3)CCNCC2)cc1 | parasite growth | THP-1 macrophages | intracellular amastigotes | IC90 | 2.4 µM
N=C(N)NCCC[C@H](NC(=O)[C@H](CCCNC(=N)N)NC(=O)[C@H](CCCNC(=N)N)NC(=O)[C@H](CCC(N)=O)NC(=O)[C@H](CCCNC(=N)N)NC(=O)[C@H](CCCNC(=N)N)NC(=O)[C@H](CCCCN)NC(=O)[C@H](CCCCN)NC(=O)[C@H](CCCNC(=N)N)NC(=O)CNC(=O)[C@H](Cc1ccc(O)cc1)NC(=O)CNC(=O)CNC(=O)[C@H](CCCCN)NC(=O)[C@H](CCCNC(=N)N)NC(=O)[C@H](CCC(N)=O)NC(=O)[C@H](CS)NC(=O)[C@H](CCC(N)=O)NC(=O)CNC(=O)[C@H](CC(N)=O)NC(=O)[C@@H](N)CCCNC(=N)N)C(N)=O | parasite growth, resazurin | – | 48 h, promastigote | IC50 | ~40 µM

Excerpt of the above:
Structure (SMILES) | assay | test system | conditions | quantity | value
O=C(NCCNCCO)c1cn(Cc2ccccc2)c2cc(OCc3ccc(C(F)(F)F)cc3)c(Cl)cc2c1=O | – | Bob promastigotes | 120 h | IC50 | < 3 µM
